Results gathered from unrelated publications.
Each numbered part is a random draw from the data of one study; scales do not carry over between parts.

Sample 1 — technique: protein-binding microarray; form: double-stranded DNA, one strand shown; matrix: in vitro; tested at: 2540 nM top; notes: 60-bp whole probe; together with: salmon DNA 0.4 mg/ml; baseline: random background probes; reading: higher = stronger binding; constant ends, left off below: GCCTAGCAC … GTCTTGATTCGCTTGACGCTGCTG
Target: Interferon regulatory factor 3, full length, phosphomimetic (IRF3, Homo sapiens, UniProt Q14653, residues 1-427, S386D/S396D/S398D/S402D/T404D/S405D)
Construct (chain): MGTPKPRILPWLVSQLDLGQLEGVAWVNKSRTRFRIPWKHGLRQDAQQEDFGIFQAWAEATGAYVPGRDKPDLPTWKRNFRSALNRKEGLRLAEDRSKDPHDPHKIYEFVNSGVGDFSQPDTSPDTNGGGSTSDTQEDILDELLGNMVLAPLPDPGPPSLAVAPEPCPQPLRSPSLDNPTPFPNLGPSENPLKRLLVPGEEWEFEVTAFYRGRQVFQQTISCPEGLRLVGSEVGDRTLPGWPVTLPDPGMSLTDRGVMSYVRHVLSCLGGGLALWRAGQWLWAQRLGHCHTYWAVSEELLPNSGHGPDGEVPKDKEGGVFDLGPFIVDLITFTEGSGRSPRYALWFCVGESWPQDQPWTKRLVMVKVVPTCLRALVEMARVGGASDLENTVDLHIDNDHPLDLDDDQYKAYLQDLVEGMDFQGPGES
Sequence | fitted relative affinity [z-score]
ACCATTTTGGTTTTCCTTATGTGCTAG | 4.14
TCATTTTCGTTTTTATTATTGTGCTAG | 6.73
GGAAGTATGACTCTGCCTCTGTGCTAG | -0.656
GACGGTTTCCATCTCCTGACGTGCTAG | 8.14
GACGGTCTCGGATTCGGGACGTGCTAG | 1.64
TTAGGAGTCAACTCTCTAATTGTGCTA | -0.262
GACGTTCTCAGTCTCGAGACGTGCTAG | 1.4

Sample 2 — technique: competition protein-binding microarray; form: double-stranded DNA, one strand shown; matrix: in vitro; tested at: 2 µM; together with: Cbf1 competitor, 0.05 µM; reading: higher = stronger binding
Target: Phosphate system positive regulatory protein PHO4, full length, GST-tagged (PHO4, Saccharomyces cerevisiae, UniProt P07270, residues 1-312)
Notes: whole 60-bp probe, lowest competitor level
Target sequence (chain): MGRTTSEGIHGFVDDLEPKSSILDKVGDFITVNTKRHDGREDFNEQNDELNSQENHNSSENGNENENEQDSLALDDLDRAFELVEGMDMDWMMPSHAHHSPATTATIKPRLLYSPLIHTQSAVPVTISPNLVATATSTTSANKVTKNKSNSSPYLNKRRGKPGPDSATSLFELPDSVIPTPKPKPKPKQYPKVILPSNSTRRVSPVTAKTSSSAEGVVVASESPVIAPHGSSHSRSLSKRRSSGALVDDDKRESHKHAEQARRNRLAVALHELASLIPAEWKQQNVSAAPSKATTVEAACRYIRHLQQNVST
Sequence | fluorescence intensity
TTGGCTTAAATTTGTCACGTGAAGCTCTATTTTTTTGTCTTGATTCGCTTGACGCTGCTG | 12300 a.u.
TGGTCTTGGCCTTGACCGGTGATACGCGTCTTGTGCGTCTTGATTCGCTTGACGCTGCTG | 3250 a.u.
AACCGTACTTGATTTCACCTGCGGGCTTCAAGTCGGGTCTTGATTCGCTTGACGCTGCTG | 3110 a.u.
CTTCTGTAAATTTGGGCAGTGGGTGGACGCGCCCCGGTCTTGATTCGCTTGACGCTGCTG | 3920 a.u.
CCGATGACGAGTTGGTCCGTGATGGCGGAACTAACTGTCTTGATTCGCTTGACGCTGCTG | 3990 a.u.
AACGGTTGATTCATTAATGTGATGACTGTTCACCCTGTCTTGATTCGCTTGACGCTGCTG | 3360 a.u.
GATTCATGGCTTCACCACGGGTCTTTGGCCAAGAGTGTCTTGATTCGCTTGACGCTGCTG | 7600 a.u.
GTTACCATTGTCCATCACGATCAAGAAACTCGCTGTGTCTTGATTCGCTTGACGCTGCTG | 4430 a.u.
GTCTTGTCTCATTGCTCAGTGGGTGTCCCCACTTCAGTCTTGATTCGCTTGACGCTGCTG | 4150 a.u.

Sample 3 — technique: universal PBM; form: double-stranded DNA, one strand shown; matrix: in vitro; tested at: 600 nM; reading: higher = stronger binding
Target: Sal-like protein 4, full length isoform A (SALL4, Homo sapiens, UniProt Q9UJQ4, residues 1-1053)
UniProt Q9UJQ4, sequence (whole entry, looked up): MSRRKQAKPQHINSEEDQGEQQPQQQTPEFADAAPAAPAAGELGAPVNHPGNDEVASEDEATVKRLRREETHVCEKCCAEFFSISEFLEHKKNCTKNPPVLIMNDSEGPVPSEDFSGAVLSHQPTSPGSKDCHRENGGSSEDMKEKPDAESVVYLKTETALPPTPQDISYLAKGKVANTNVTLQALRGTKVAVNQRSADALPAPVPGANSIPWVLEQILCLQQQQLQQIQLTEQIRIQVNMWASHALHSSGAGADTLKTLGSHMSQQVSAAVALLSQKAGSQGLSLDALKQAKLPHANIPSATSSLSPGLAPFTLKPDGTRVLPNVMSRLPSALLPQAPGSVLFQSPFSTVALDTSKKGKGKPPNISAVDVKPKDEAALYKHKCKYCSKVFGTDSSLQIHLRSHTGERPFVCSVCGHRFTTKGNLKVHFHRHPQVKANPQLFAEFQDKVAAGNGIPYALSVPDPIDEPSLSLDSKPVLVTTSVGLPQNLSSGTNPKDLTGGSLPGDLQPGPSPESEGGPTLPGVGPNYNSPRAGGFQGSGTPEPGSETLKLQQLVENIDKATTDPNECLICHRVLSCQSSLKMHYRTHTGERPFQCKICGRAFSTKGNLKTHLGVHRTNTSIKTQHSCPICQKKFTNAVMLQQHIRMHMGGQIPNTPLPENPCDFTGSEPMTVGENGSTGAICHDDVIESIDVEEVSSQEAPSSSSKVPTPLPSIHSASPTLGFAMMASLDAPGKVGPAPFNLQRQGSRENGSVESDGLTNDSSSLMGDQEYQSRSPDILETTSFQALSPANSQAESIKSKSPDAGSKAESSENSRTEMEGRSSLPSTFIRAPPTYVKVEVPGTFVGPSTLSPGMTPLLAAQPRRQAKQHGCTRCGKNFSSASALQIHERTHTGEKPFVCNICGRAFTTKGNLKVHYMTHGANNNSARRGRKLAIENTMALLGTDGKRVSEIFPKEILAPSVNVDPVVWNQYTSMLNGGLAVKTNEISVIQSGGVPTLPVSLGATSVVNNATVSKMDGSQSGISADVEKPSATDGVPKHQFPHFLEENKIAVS
Notes: 8-mer, flanks averaged, mean of replicates
Sequence | E-score
AGCTTTAT | 0.0706
ACTACGTC | -0.0123
GACAGCCC | -0.323
GTCACACA | -0.0154
ACGTAGAG | -0.127
GTGAATGA | 0.115
GAAATATC | 0.239
ACTGTCCA | -0.00285

Other studies, line by line
Molecule | target | assay | test system | conditions | how to read | endpoint | value
PhoQ, residues 284 288 289 292 302 303 GNNTDL | PhoP, residues 12 14 15 18 19 VHSCL (Escherichia coli, UniProt P23836) | Sort-seq, measured: YFP reporter | E. coli | PhoQ-PhoP variant library, together with: 10 µM Mg2+ | baseline: high Mg2+ state, higher = stronger signaling | fold induction | 3.02

Repeated from above (sample 1):
Sequence | fitted relative affinity [z-score]
TCATTTTCGTTTTTATTATTGTGCTAG | 6.73
GACGGTCTCGGATTCGGGACGTGCTAG | 1.64
